Assay results collected from several papers.
Cell line: HCT-15

For O=C(Nc1nnc2c1c(-c1ccc(Cl)cc1)nc1sc(=Cc3ccco3)c(=O)n12)c1ccccc1 (mixture of isomers), the cell growth was 31.7% (SRB; 10 µM, NCI60 single-dose screen, colon cancer; baseline: untreated).
CCN(C(=O)c1cc(F)ccc1Oc1nncnc1N1CCC2(C1)CN([C@H](CCCN(C)CCOC)C(C)C)C2)C(C)C has a GI50 of > 10 µM (cell growth or viability; 72 h).
With Cc1ccc(C(C)C)cc1.Cc1ccc(C(C)C)cc1.Cc1ccc(C(C)C)cc1.Cc1ccc(C(C)C)cc1.O=S(=O)(O)C(F)(F)F.O=S(=O)(O)C(F)(F)F.O=S(=O)(O)C(F)(F)F.O=S(=O)(O)C(F)(F)F.c1ccc2c3c4ccccc4c(c2c1)-c1cn(nn1)-c1cc[n+](cc1)[Ru-]1[O]c2c4ccccc4c4c5c(c6ccccc6c(c25)=[O+]1)=[O+][Ru-]([O]4)[n+]1ccc(cc1)-n1cc(nn1)-c1c2ccccc2c(c2ccccc12)-c1cn(nn1)-c1cc[n+](cc1)[Ru-]1[O]c2c4ccccc4c4c5c(c6ccccc6c(c25)=[O+]1)=[O+][Ru-]([O]4)[n+]1ccc(cc1)-n1cc-3nn1 the IC50 was > 20 µM (cell growth, MTT; 24 h, 20 µM preincubated in medium 48 h at 37 °C).
For COc1cc(/C=C/C(=O)/C=C(O)/C=C/c2ccc(OCC(=O)N3CCOCCOCCOCC3)c(OC)c2)ccc1OCC(=O)N1CCOCCOCCOCC1, the inhibition was 30.1% (cell growth or viability, SRB; 25 µM).
The TGI of C1=[N+]2CCCC[N+]3=Cc4ccc5[n]4[Au-]23[n]2c1ccc2-c1nc2ccccc2nc1-5.F[P-](F)(F)(F)(F)F is reported as 4 -log M (NCI60 five-dose screen).
The GI50 of O=C(CCl)c1ccccc1Nc1cccc(C(F)(F)F)c1 is reported as 11.2 µM (cell growth or viability, SRB; 48 h).
With CCCC(CCC)C(=O)OCc1cn(-c2cc3ccccc3oc2=O)nn1 the growth percentage was 102% (NCI60 single-dose screen; 10 µM).
COc1cc(/C=C/C(=O)/C=C(O)/C=C/c2ccc(OCC(=O)N3CCOCCOCCOCCOCC3)c(OC)c2)ccc1OCC(=O)N1CCOCCOCCOCCOCC1 gave an inhibition of 100% (cell growth or viability, SRB; 25 µM).
